Measurements collected from several papers.
Numbered parts are unrelated; each lists some results of a single study.
Sequence of UniProt P15056 (whole entry, unmodified, looked up): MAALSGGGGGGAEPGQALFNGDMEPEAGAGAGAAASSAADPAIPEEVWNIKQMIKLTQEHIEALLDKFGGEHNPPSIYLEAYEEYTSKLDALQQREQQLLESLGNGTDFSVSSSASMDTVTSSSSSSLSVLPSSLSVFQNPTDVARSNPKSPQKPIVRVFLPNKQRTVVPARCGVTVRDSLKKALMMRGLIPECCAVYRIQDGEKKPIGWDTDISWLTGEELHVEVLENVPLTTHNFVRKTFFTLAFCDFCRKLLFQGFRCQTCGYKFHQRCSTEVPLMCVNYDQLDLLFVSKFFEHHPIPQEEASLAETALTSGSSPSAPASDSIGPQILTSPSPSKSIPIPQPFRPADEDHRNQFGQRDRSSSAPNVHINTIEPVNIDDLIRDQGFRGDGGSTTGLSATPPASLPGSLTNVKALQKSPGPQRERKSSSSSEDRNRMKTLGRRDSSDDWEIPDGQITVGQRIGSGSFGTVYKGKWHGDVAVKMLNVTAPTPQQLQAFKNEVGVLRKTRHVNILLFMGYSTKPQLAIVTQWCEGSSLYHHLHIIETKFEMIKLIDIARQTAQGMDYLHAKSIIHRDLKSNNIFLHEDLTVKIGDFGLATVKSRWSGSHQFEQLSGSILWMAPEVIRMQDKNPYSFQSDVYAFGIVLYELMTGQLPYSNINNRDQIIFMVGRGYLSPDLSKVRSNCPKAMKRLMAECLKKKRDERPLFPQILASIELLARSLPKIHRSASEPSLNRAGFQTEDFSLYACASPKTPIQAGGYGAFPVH
Sequence of UniProt P11802 (whole entry, looked up): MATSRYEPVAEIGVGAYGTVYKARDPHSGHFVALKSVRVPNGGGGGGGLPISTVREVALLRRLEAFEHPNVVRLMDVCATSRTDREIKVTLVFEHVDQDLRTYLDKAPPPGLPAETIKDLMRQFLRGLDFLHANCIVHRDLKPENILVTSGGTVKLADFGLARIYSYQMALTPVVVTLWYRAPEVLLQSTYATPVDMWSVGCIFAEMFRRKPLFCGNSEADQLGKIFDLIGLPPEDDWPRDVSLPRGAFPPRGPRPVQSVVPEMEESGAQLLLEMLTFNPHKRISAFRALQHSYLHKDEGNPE
Sequence of UniProt P50613 (whole entry, looked up): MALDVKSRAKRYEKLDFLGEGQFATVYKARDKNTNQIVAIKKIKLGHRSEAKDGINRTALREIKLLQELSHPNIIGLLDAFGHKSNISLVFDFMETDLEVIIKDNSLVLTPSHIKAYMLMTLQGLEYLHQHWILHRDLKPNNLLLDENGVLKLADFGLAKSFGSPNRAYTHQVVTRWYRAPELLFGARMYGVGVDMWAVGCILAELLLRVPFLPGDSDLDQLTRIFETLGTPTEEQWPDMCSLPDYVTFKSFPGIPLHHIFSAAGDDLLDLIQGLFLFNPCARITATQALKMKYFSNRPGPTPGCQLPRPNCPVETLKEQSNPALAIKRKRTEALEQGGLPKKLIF
Sequence of UniProt O43318 (whole entry, looked up): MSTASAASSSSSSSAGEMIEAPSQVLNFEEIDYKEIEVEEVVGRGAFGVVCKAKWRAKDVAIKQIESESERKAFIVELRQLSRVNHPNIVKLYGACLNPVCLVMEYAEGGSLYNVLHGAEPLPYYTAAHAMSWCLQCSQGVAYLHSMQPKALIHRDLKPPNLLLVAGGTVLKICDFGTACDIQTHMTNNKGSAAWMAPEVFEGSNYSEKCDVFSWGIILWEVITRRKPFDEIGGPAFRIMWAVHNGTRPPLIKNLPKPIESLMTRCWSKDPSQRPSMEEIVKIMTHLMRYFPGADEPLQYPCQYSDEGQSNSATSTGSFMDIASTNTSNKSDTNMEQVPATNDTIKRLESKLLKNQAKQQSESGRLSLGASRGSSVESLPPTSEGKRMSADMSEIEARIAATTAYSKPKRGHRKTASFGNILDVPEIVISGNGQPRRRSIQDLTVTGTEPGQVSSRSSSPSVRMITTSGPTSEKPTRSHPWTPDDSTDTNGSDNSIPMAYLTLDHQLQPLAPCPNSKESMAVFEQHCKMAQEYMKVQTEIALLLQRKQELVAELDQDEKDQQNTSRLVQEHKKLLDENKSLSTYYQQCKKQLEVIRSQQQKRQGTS
Sequence of UniProt P53355 (whole entry, looked up): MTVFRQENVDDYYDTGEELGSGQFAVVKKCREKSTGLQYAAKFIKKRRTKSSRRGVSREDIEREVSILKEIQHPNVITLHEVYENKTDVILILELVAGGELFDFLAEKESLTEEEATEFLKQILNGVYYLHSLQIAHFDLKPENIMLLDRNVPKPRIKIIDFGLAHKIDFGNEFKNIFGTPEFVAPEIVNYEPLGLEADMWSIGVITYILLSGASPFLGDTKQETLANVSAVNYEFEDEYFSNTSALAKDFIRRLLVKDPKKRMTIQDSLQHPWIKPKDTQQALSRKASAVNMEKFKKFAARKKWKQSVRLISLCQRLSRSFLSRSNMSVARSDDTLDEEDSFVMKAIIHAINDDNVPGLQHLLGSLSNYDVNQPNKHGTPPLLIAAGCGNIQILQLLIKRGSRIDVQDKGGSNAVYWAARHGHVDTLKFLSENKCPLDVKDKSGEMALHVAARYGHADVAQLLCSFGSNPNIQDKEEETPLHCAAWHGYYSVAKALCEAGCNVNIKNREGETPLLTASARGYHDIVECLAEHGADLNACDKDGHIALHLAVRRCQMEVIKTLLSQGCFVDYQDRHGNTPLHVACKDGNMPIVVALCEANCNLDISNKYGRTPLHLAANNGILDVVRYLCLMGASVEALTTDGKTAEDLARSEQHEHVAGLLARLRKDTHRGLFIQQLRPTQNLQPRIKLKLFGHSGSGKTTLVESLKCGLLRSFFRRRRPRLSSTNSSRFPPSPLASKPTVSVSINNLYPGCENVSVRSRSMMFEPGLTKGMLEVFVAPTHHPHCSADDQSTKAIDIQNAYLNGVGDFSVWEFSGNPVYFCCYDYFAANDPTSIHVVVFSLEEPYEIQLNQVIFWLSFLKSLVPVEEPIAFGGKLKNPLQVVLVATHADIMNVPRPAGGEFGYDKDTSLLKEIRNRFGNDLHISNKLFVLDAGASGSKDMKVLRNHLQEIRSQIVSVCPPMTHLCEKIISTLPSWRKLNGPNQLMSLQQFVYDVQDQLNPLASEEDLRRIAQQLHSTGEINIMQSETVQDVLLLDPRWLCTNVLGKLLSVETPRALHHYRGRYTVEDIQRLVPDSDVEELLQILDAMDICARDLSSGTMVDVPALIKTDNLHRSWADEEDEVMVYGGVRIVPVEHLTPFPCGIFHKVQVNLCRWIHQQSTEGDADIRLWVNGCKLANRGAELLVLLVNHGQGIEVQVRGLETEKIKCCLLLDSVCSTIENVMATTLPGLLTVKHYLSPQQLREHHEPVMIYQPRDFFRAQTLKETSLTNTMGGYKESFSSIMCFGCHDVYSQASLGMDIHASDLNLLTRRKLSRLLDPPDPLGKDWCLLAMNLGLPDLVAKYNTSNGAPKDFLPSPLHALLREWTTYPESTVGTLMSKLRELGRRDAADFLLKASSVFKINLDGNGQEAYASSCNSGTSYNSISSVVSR

Set 1
SMILES: C=CCc1ccc(O)c(-c2ccc(O)c(CC=C)c2)c1
Observed: chloride current
Method: whole-cell voltage clamp
ANO1 del476-501/F627A: Anoctamin-1 (ANO1, Homo sapiens, UniProt Q5XXA6, del476-501/F627A)
Sequence of UniProt Q5XXA6 (whole entry, unmodified, looked up): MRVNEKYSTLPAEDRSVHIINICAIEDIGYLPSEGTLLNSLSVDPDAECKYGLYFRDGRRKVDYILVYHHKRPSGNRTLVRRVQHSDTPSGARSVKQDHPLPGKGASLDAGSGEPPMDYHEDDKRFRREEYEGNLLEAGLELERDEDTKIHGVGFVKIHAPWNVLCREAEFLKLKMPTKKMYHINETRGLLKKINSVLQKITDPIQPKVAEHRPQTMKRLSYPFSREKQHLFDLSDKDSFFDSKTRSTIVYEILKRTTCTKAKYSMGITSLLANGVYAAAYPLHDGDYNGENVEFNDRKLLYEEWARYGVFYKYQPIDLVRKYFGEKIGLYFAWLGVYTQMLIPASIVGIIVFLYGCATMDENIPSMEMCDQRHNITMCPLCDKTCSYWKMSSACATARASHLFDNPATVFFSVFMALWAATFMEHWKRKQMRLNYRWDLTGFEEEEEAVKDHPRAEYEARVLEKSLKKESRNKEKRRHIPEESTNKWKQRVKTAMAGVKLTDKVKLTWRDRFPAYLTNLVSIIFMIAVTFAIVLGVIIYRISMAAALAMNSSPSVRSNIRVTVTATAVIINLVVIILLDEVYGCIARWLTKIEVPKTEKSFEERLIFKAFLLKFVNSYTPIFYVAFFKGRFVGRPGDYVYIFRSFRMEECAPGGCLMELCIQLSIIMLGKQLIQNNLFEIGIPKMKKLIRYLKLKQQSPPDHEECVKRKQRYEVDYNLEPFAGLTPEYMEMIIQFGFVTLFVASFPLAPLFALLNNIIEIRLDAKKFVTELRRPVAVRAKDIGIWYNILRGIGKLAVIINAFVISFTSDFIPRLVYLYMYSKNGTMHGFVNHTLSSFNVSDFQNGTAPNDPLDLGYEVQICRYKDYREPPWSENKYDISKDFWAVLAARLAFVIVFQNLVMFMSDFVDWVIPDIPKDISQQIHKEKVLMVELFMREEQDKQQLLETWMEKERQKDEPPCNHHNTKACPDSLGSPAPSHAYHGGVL
The IC50 was 6.47 µM (Anoctamin-1 (ANO1, Homo sapiens, UniProt Q5XXA6, del476-501/R561A); membrane voltage 60 mV).
It gave 5.94 µM for IC50 (ANO1 del476-501/F627A; membrane voltage -100 mV).
Anoctamin-1 (ANO1, Homo sapiens, UniProt Q5XXA6, del476-501/R631I); inhibitor; R605I mutant at 80 mV — IC50: 28.9 µM.
The IC50 was 7.55 µM (ANO1 del476-501/F627A; membrane voltage 100 mV).
Anoctamin-1 (ANO1, Homo sapiens, UniProt Q5XXA6, del476-501/F646A); membrane voltage 100 mV — IC50: 9.57 µM.
It gave 7.05 µM for IC50 (Anoctamin-1 (ANO1, Homo sapiens, UniProt Q5XXA6, del476-501/F803I); inhibitor; 60 mV holding voltage).
The IC50 was 22 µM (Anoctamin-1 (ANO1, Homo sapiens, UniProt Q5XXA6, D383A/del476-501); membrane voltage -100 mV).

Set 2
SMILES: O=C(Nc1ccc(Oc2ccc(F)cc2)cc1)N1CCc2ncccc2[C@H]1c1ccc(F)cc1
Tested at: 1 µM
It gave 100% for remaining binding (ALK tyrosine kinase receptor (ALK, Homo sapiens, UniProt Q9UM73); cell-free assay, competition with immobilised ligand).
For Mitogen-activated protein kinase kinase kinase 7 (MAP3K7, Homo sapiens, UniProt O43318); cell-free assay, competition with immobilised ligand: remaining binding read 89%.
The remaining binding was 100% (Tyrosine-protein kinase ABL1, phosphorylated (ABL1, Homo sapiens, UniProt P00519, F317I); binding).
The remaining binding was 80% (Serine/threonine-protein kinase 35 (STK35, Homo sapiens, UniProt Q8TDR2); cell-free assay, competition with immobilised ligand).
It gave 70% for remaining binding (Ephrin type-B receptor 6 (EPHB6, Homo sapiens, UniProt O15197); cell-free assay, competition with immobilised ligand).
It gave 77% for remaining binding (Cyclin-dependent kinase 7 (CDK7, Homo sapiens, UniProt P50613); cell-free assay, competition with immobilised ligand).
Cyclin-dependent kinase 4 (CDK4, Homo sapiens, UniProt P11802); cell-free assay, competition with immobilised ligand — remaining binding: 96%.
The remaining binding was 97% (Receptor-type tyrosine-protein kinase FLT3 (FLT3, Homo sapiens, UniProt P36888, R834Q); cell-free assay, competition with immobilised ligand).
It gave 100% for remaining binding (Tyrosine-protein kinase Fes/Fps (FES, Homo sapiens, UniProt P07332); cell-free assay, competition with immobilised ligand).
For Tyrosine-protein kinase JAK1, JH2 (JAK1, Homo sapiens, UniProt P23458); cell-free assay, competition with immobilised ligand: remaining binding read 100%.
The remaining binding was 73% (Epidermal growth factor receptor (EGFR, Homo sapiens, UniProt P00533, G719C); cell-free assay, competition with immobilised ligand).
For Death-associated protein kinase 1 (DAPK1, Homo sapiens, UniProt P53355); cell-free assay, competition with immobilised ligand: remaining binding read 87%.
For Serine/threonine-protein kinase MRCK alpha (CDC42BPA, Homo sapiens, UniProt Q5VT25); cell-free assay, competition with immobilised ligand: remaining binding read 94%.
For Mitogen-activated protein kinase 3 (MAPK3, Homo sapiens, UniProt P27361); cell-free assay, competition with immobilised ligand: remaining binding read 87%.
Serine/threonine-protein kinase PLK3 (PLK3, Homo sapiens, UniProt Q9H4B4); cell-free assay, competition with immobilised ligand — remaining binding: 87%.
The remaining binding was 93% (Serine/threonine-protein kinase B-raf (BRAF, Homo sapiens, UniProt P15056, V600E); cell-free assay, competition with immobilised ligand).
It gave 75% for remaining binding (Phosphatidylinositol 4-kinase beta (PI4KB, Homo sapiens, UniProt Q9UBF8); cell-free assay, competition with immobilised ligand).

Set 3
Target: Beta-1 adrenergic receptor (ADRB1, Homo sapiens, UniProt P08588)
Sequence of UniProt P08588 (whole entry, looked up): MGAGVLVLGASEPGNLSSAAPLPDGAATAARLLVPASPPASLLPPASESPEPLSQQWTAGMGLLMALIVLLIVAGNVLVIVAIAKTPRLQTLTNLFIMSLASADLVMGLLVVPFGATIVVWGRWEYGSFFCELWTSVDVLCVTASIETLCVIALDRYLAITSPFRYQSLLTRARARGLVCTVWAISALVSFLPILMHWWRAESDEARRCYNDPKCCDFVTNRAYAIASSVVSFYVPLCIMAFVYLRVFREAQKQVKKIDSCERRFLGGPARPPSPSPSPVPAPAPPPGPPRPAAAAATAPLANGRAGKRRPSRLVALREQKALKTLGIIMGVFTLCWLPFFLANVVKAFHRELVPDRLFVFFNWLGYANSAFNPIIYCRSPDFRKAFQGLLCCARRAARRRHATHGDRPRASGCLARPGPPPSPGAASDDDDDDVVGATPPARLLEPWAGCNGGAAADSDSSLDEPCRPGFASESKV
Action: antagonist
`COc1ccccc1N1CCN(C(=O)c2ccc(-c3cccc(C(F)(F)F)c3)o2)CC1` has an IC50 of ≥ 100 µM.
For `COc1ccc(C(=O)N2CCc3cc(OC)c(OC)cc3C2COc2ccc3c(C)cc(=O)oc3c2)c(OC)c1` (stereo not drawn), the IC50 was ≥ 100 µM.
`CN1CCC2(CC1)CCN(Cc1ccc(OCC(O)CN3CCCCC3)cc1)C2` (stereo not drawn) gave an IC50 of ≥ 100 µM.
For `CC(=O)Nc1ccc([C@@H](O)[C@H]2COCC(=O)N2CCCc2ccccc2)cc1`, the IC50 was ≥ 100 µM.
`CC(C)NCC(O)COc1cccc2c1N(C(=O)c1cccnc1)CCC2` (stereo not drawn) gave an IC50 of ≥ 100 µM.
`Cc1ccn(-c2ccc(NCC(O)C3CCCCC3)nn2)n1` (stereo not drawn) has an IC50 of ≥ 100 µM.
`CCNC(=O)Nc1ccc([C@@H](O)[C@H]2COCC(=O)N2Cc2ccccc2)cc1` gave an IC50 of ≥ 100 µM.
The IC50 of `Cc1ccc2c(-c3ccc(NC4CC4)nn3)cccc2n1` is reported as 22.4 µM.
`OC(COc1ccc(CN2CCC(F)CC2)cc1)CN1CCCCC1` (stereo not drawn) gave an IC50 of ≥ 100 µM.

Set 4
Cell line: mouse MPNST tumor cells
Method: high-content immunofluorescence imaging
Measured: nuclear SOX9
Tested at: 10 µM
Time: 12 h
Notes: mean of 2 replicates
Baseline: DMSO control
Reading: higher = more nuclear SOX9
For `CN1[C@@H]2CC[C@H]1C[C@@H](OC(=O)c1c[nH]c3ccccc13)C2`, “nuclear SOX9 intensity” read 111 % of DMSO.
Under “nuclear SOX9 intensity”, `NS(=O)(=O)c1cc2c(cc1Cl)N=CNS2(=O)=O` is recorded as 107 % of DMSO.
For `O=[N+]([O-])c1cccc2c(Br)[nH]nc12`, “nuclear SOX9 intensity” read 107 % of DMSO.
`Fc1ccc(Cl)cc1-c1nc(Nc2ccncc2)c2nccnc2n1`: “nuclear SOX9 intensity” 124 % of DMSO.
`Cc1nnc(-c2ccc3occ(-c4ccc([S+](C)[O-])cc4)c3c2)o1` (stereo not drawn): “nuclear SOX9 intensity” 91.3 % of DMSO.
`CC1CNCCN1S(=O)(=O)c1cccc2cnccc12` (stereo not drawn) — result for “nuclear SOX9 intensity”: 90.6 % of DMSO.
For `O=C(c1ccc(F)cc1)N1CCc2nc(COc3ccccc3)oc2C1`, “nuclear SOX9 intensity” read 96.3 % of DMSO.
For `COc1ccc(C2(O)CCC(N3CC[C@@H](NC(=O)CNC(=O)c4cccc(C(F)(F)F)c4)C3)CC2)cn1` (stereo partly drawn), “nuclear SOX9 intensity” read 106 % of DMSO.
Under “nuclear SOX9 intensity”, `CSc1nc(N)cc(Oc2ccc(-c3nc(Nc4cccc(C(F)(F)F)c4)n[nH]3)cc2)n1` is recorded as 192 % of DMSO.

For quick reference, copied from above (set 2):
The remaining binding was 80% (Serine/threonine-protein kinase 35 (STK35, Homo sapiens, UniProt Q8TDR2); cell-free assay, competition with immobilised ligand).
It gave 70% for remaining binding (Ephrin type-B receptor 6 (EPHB6, Homo sapiens, UniProt O15197); cell-free assay, competition with immobilised ligand).
It gave 77% for remaining binding (Cyclin-dependent kinase 7 (CDK7, Homo sapiens, UniProt P50613); cell-free assay, competition with immobilised ligand).
Cyclin-dependent kinase 4 (CDK4, Homo sapiens, UniProt P11802); cell-free assay, competition with immobilised ligand — remaining binding: 96%.
The remaining binding was 97% (Receptor-type tyrosine-protein kinase FLT3 (FLT3, Homo sapiens, UniProt P36888, R834Q); cell-free assay, competition with immobilised ligand).
